Measured values from different studies.
Protocols differ between the studies behind these lines. Values joined by “and” are separate records of one study, mostly repeats; a detail may differ.
Target: Muscarinic acetylcholine receptor M1 (CHRM1, Homo sapiens, UniProt P11229)

CCO[C@H]1[C@H](O)[C@@H](N)[C@@H](O[C@H]2[C@H](O[C@@H]3O[C@H](CO)[C@@H](O[C@H]4O[C@@H](CN)[C@@H](O)[C@H](O)[C@H]4N)[C@H]3O)[C@@H](O)[C@H](N)C[C@@H]2N)O[C@@H]1CO  specific binding (radioligand binding; 10 µM, 1% DMSO): 5%
C/C(=N\OCCCN1CCCCC1)c1ccc(C(F)(F)F)cc1  inhibition (antagonist, IP-One; 10 µM): 26.7%
CN[C@@H]1[C@H](O)[C@H](NC)[C@H]2O[C@]3(O)[C@H](O[C@@H]2[C@H]1O)O[C@H](C)C[C@H]3NC(=O)Cc1ccc(Cl)cn1  inhibition (ligand displacement, radioligand; 10 µM): 1%
CCN(CC)CCOc1ccc(-c2nnn(Cc3ccc(OC)cc3)c2N)cc1  inhibition (radioligand binding; HEK293; 10 µM, safety profiling): 11.2%
C[C@H](NCc1ccc(-c2ccc(C(F)(F)F)cc2)cc1)C(N)=O  inhibition of binding (radioligand binding; 1 µM, with: [3H]N-methylscopolamine 0.80 nM): -3%
Cc1cc(Nc2nc(C[C@@]3(C(=O)O)CCN(Cc4cccc(Cl)c4F)[C@H](C)C3)cc(C)c2F)[nH]n1  inhibition (inhibitor; 10 µM): 10.1%
Cc1sc2c(c1C)C(c1ccc(Cl)cc1)=NC(CC(=O)OC(C)(C)C)c1nnc(C)n1-2 (centres unmarked)  specific binding (radioligand binding; 1 µM): 114%
N[C@H](C(=O)N1CCCC1)C1CCN(c2nccc3c(-c4ncc(Cl)cc4Cl)cccc23)CC1  inhibition (functional response, antagonist; 10 µM): 50%
CS(C)(=O)=Nc1ccc(-c2ccc(-c3nc4cc(O[C@@H]5CO[C@H]6[C@@H]5OC[C@H]6O)[nH]c4cc3F)cc2)cc1  inhibition (calcium signal, antagonist; 10 µM): 56%
CCOC(=O)[C@](CC)(CCCSCCOCCOCCNC(=O)c1ccc(-c2c3ccc(=N)c(S(=O)(=O)O)c-3oc3c(S(=O)(=O)O)c(N)ccc23)c(C(=O)O)c1)NC(=O)c1ccc(C2CC2)c(Cc2ccc(F)cc2)n1  inhibition (ligand displacement, radioligand; 10 µM): -5%
COc1ccc(F)cc1S(=O)(=O)Nc1cnc2c(c1)C(=O)NCCO2  inhibition (ligand displacement, radioligand; 10 µM): 1%
CCc1nnc(-c2c(OC)cc(-c3cnc4cc(-c5cnn(C)c5)ccn34)cc2OC)o1  remaining binding (antagonist radioligand, radioligand binding; 10 µM, SafetyScreen44 M1 replicate 2; lower = stronger displacement): 101%
Cc1cc(-c2ccc3ccccc3c2)nnc1NCCN1CCN(C)CC1  activity (antagonist; 10000 nM; relative to: control): 0%
O=C(O)c1ccc(-c2nc(-c3ccccc3Cl)c3sccn23)cc1  specific binding (radioligand binding; 10 µM, safety screen panel; relative to: control): 94.6% and 102%

Some of these lines once more:
CCO[C@H]1[C@H](O)[C@@H](N)[C@@H](O[C@H]2[C@H](O[C@@H]3O[C@H](CO)[C@@H](O[C@H]4O[C@@H](CN)[C@@H](O)[C@H](O)[C@H]4N)[C@H]3O)[C@@H](O)[C@H](N)C[C@@H]2N)O[C@@H]1CO  specific binding (radioligand binding; 10 µM, 1% DMSO): 5%
